Results from different studies.
Compare with care: the assays were run in different laboratories. “And” joins repeats or separate records; there may be more than shown. Numbers after ± are the reported error.
UniProt P21917, sequence (whole entry, looked up): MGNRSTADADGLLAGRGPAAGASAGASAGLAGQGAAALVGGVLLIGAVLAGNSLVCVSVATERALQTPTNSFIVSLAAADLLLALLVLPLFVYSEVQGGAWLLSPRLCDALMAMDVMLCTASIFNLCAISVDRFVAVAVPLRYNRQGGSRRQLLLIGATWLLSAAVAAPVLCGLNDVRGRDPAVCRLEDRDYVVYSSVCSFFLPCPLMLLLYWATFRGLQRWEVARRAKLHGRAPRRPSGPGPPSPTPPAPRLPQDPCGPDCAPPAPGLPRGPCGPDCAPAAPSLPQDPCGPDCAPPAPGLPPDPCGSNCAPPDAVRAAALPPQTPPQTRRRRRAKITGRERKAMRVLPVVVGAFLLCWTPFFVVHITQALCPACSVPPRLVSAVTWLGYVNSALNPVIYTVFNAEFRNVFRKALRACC
UniProt Q92851, sequence (whole entry, looked up): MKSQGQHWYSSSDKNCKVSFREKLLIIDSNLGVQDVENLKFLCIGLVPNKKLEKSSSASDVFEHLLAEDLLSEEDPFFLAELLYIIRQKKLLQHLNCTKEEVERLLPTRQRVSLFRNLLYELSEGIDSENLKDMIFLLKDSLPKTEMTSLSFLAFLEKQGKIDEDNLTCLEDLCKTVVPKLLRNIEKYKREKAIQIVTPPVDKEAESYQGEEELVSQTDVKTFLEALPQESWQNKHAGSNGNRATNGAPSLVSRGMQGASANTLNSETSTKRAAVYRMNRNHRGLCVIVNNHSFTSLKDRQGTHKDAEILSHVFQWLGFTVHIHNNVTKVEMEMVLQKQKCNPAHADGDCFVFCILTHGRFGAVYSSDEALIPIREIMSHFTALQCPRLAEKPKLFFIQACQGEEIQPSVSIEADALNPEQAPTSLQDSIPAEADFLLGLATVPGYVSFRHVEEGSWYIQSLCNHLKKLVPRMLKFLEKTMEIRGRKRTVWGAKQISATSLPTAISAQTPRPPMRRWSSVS
UniProt Q14790, sequence (whole entry, looked up): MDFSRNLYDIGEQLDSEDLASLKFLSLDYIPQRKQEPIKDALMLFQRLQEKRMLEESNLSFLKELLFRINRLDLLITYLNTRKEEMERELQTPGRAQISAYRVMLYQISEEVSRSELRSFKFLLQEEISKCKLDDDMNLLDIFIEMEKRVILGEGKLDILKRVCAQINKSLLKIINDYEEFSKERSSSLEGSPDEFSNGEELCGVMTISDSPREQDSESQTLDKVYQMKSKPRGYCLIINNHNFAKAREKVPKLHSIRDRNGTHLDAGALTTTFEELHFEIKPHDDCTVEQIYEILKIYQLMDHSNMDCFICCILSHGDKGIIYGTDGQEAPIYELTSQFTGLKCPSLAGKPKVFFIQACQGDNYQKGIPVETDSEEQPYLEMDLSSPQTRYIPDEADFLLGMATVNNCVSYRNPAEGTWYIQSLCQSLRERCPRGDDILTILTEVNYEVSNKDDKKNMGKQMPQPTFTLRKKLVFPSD

Compound	target or system	assay	test system	conditions	how to read	quantity	result
Cc1cc(=O)c2c(O)c3c(O[C@@H]4O[C@H](CO)[C@@H](O)[C@H](O)[C@H]4O)cc(O)cc3cc2o1	HK-2 co-cultured with HepaRG	MTT	–	33.33 µM, 24 h	reference: untreated control	cell viability	86.8 ± 15.9%
Cc1cccc(NC(=O)CCN2CCN(C/C=C/c3ccccc3)CC2)c1	–	–	zebrafish larvae, 7 dpf	10 µM, minute 6	–	larval motion	6.8 ± 0.8 pixels/frame
C=C(NC(=O)c1csc(-c2nc3c(cc2O)-c2nc(cs2)C(=O)NC(C(C)O)C(=O)NC(=C(C)OC)c2nc(cs2)C(=O)NC2c4nc(cs4)C(=O)NC(COC(=O)c4c5c6c(cccc6n4O)COC(=O)C(OC4CC(C)(O)C(N(C)C)C(C)O4)C2OC5)c2nc-3cs2)n1)C(N)=O (stereo not drawn)	Streptococcus pneumoniae	–	-4, immunocompromised mice, lung infection, lung	16 mg/kg/day once daily, 24 h post-dose	–	bacterial load	6.46 log CFU/g
COC1CN([C@H]2CC[C@H]([C@@]3(C)Oc4c(Cl)cc(C(=O)NCc5c(SC)cc(C)[nH]c5=O)c(C)c4O3)CC2)C1	–	RNA-seq, item: IL18R1 mouse homolog	mouse, HT-1376 xenograft, whole blood	dose not given	reference: vehicle	log2 fold change	0.024
Cn1ncc2cc(-c3cncc(Cl)c3N3CCC4(CCNC4=O)CC3)ccc21	LS174T	gene expression, microarray, item: MAT2A mRNA	–	concentration not given, 24 h	reference: untreated cells	log2 fold change	-2.04
CCN(C(=O)c1cc(F)ccc1Oc1nncnc1N1CCC2(C1)CN([C@H](CCCN(C)CCOC)C(C)C)C2)C(C)C	JIMT-1	cell growth or viability	–	72 h	–	GI50	> 10000 nM
COc1cc(O)ccc1CCC(c1ccc(O)cc1)c1cc2c(c(C)c1O)OC(c1ccc(O)cc1)CC2 (mixture of isomers)	–	–	human blood	1 µM, added: A23187	–	14-HDHA level	583 ± 73 pg/mL
C=CC(=O)N1[C@@H](c2ccc3c(c2)OCO3)c2[nH]c3ccccc3c2C[C@H]1C(=O)N1CCN(C)CC1	human cyclin E1 wild type-3xFLAG:CDK2	co-IP with TMT proteomics, item: KPNA2	–	concentration not given, P52292	reference: wild type DMSO	relative co-enrichment	85%
C=CC(=O)Nc1cccc(Cn2ncc3cnc(Nc4cnn(CCOC)c4)nc32)c1	ASK2 human	binding, KINOMEscan	–	100 nM	lower = stronger binding	percent of control	92%
CC(C)c1ccc(N(C)c2ccc3c(c2)OCC[C@H]3CNc2cnccc2C(=O)O)cc1	NCI-H209	cell viability, CellTiter-Glo	–	7 days	–	IC50	1.31 nM
CCC[C@H](NC(=O)[C@H](CC(=O)O)NC(C)=O)C(=O)N1[C@H](C(=O)N[C@@H](CC(=O)O)C(=O)COC(=O)c2c(C)cccc2C)C[C@@H]2CCCC[C@@H]21	Caspase-8 (CASP8, Homo sapiens, UniProt Q14790)	enzyme activity, inhibitor	–	–	–	kinact/KI	524000 M⁻¹ s⁻¹
Nc1ncc(-c2cc(-c3cnn(CC(F)(F)F)c3)ncc2F)nc1C(=O)NC1CNCC(F)C1 (stereo not drawn)	HASPIN	KINOMEscan	–	1 µM	reference: DMSO control	remaining binding	57%
CN(C)C(=O)c1ccnc(N2Cc3cn(Cc4ccc(F)cc4F)nc3C2)n1	–	–	cuprizone-diet mice, rotarod test	oral, 5 mg/kg	–	rotarod speed at fall	23 RPM and 13 RPM and 16 RPM and 11 RPM
CCN(CC)CC(=O)Nc1cccc(-n2cc(-c3ccc4ccc(-c5cn(-c6cccc(NC(=O)CN(CC)CC)c6)nn5)cc4c3)nn2)c1	RCC4	PCR angiogenesis array, item: S1PR1	–	5 x IC50, 6 h, normoxia	reference: untreated	fold regulation	-1.28
Cc1cc(C(C)(C)C)ccc1OCCOCCN(C)C	–	–	zebrafish larvae, 7 dpf	10 µM, minute 2	–	larval motion	13.8 ± 1.3 pixels/frame
COc1ccc(CN2CC(COc3ccc(F)c(C)c3)CC(F)(F)C2)cc1F (stereo not drawn)	DRD4 (Homo sapiens, UniProt P21917)	ligand displacement, radioligand	–	cell membranes	–	Ki	320 nM
Cc1ncsc1-c1ccc(C(C)NC(=O)C2CC(O)CN2C(=O)C(NC(=O)CCCCCCCCCCN2CCCC(Nc3ncc(Cl)c(Nc4ccccc4S(=O)(=O)C(C)C)n3)C2)C(C)(C)C)cc1 (stereo not drawn)	22Rv1	RNA-seq, item: RBM15B mRNA	–	concentration not given	reference: DMSO	log2 fold change	-1.17
CC(=O)N[C@@H](CO)C(=O)N[C@@H](Cc1ccccc1)C(=O)N[C@@H](C)C(=O)N[C@@H](CC(=O)O)C(=O)COC(=O)c1c(C)cccc1C	Caspase-10 (CASP10, Homo sapiens, UniProt Q92851)	inhibitor	–	recombinant enzyme	–	kobs/[I]	115000 M⁻¹ s⁻¹
CNS(=O)(=O)Nc1nccc(Cc2c(C)c3ccc(Oc4ncccc4F)cc3oc2=O)c1F	OCI-AML2	cell viability	–	7 days	–	IC50	0.701 nM
CC(C)C[C@H](NC(=O)[C@H](Cc1ccc(O)cc1)NC(=O)[C@@H](CCCNC(=N)N)NC(=O)[C@@H](CO)NC(=O)[C@H](Cc1ccccc1)NC(=O)[C@H](CC1CCCCC1)NC(=O)[C@H](CC(=O)O)NC(=O)CN1CCN(CC(=O)O)CCN(CC(=O)O)CCN(CC(=O)O)CC1)C(=O)N[C@@H](Cc1c[nH]c2ccccc12)C(=O)N[C@@H](CO)C(=O)O [copper-64 labelled]	–	–	human, lower large intestine	concentration not given, 24 h	–	activity concentration	600 Bq/mL and 741 Bq/mL and 1600 Bq/mL and 1870 Bq/mL and 957 Bq/mL and 1550 Bq/mL
Cc1cc(OCCOCCn2ccnc2)cc(C(C)C)c1	–	locomotor activity in dark	zebrafish larvae, 7 dpf	10 µM, minute 1, dark phase	–	larval motion	1.8 ± 0.9 pixels/frame
CN1CCCNC(=O)c2cccc(c2)C(=O)NCCCN(C)CCCNc2cccc3c2C(=O)c2cccc(c2C3=O)NCCC1	SAS	RNA-Seq, item: GOSR2 mRNA	–	1 µM, 6 h	reference: untreated cells	log2 fold change	-1.04
CCc1cc(OCCOCCN(C)C)ccc1Cl	–	–	zebrafish larvae, 7 dpf	10 µM, minute 4	–	larval motion	10 ± 1.9 pixels/frame
c1ccc(-c2n[nH]cc2-c2ccnc3ccccc23)nc1	TPK2 (Candida albicans)	kinase binding, MIB/MS competition	Candida albicans lysate	1 µM	reference: DMSO	log2 fold change	-0.11
